Measurements collected from several papers.
Lines come from different studies, so protocols differ. Several values in a cell are separate wells, animals, samples, runs or records. ± marks the error that the study gave.
Organism: SARS-CoV-2

For `Cc1oc2nc1C(=O)N[C@](C)(C(=O)OC(C)C)c1nc(c(C)o1)C(=O)N[C@](C)(C(=O)OC(C)C)c1nc(c(C)o1)C(=O)N[C@]2(C)C(=O)OC(C)C`, the inhibition was 53% (viral replication; Vero E6, NRC-03-nhCoV; 20 µM).
`Cc1ccc(N2CC3CC(C2)N3)cc1C(=O)NC1(c2ccc3c4c(cccc24)C(=O)N3C)CC1` has an inhibition of 90% (viral replication; Vero C1008, wild type; 0.1543 µM).
With `COc1ccc(-c2cnc3[nH]cc(C#Cc4cccnc4)c3c2)cc1OC` the infection reduction was 93 ± 4.1% (Calu-3; 5 µM, 10 h; baseline: DMSO).
Under selectivity index, `O=C1C=CC(=O)C=C1` is recorded as “inactive” (Huh-7; baseline: CC50 over EC50).
The inhibition of `Cc1oc2nc1C(=O)N[C@](C)(C(=O)NCCc1ccccc1)c1nc(c(C)o1)C(=O)N[C@](C)(C(=O)NCCc1ccccc1)c1nc(c(C)o1)C(=O)N[C@]2(C)C(=O)NCCc1ccccc1` is reported as 5% (viral replication; Vero E6, NRC-03-nhCoV; 5 µM).
The inhibition of `Cc1ccc(N2CC(N3CCC(C)(O)CC3)C2)cc1C(=O)NC1(c2ccc3c4c(cccc24)CC3)CC1` is reported as 0% (viral replication; Vero C1008, wild type; 0.05144 µM).
`C=Cc1c(C)c2cc3nc(cc4[nH]c(cc5nc(cc1[nH]2)C(C)=C5CCC(=O)O)c(CCC(=O)OC)c4C)[C@@]1(C)C3=CC=C(C(=O)OC)[C@H]1C(=O)OC`: antiviral activity “inactive” (cytopathic effect; Vero E6; up to 30.0 µM).
`CCCC/C=C/C(=O)N[C@@H](Cc1csc2ccccc12)C(=O)N[C@H]1COC(=O)[C@@H]2C[C@@H](C)CN2C(=O)[C@H](C)NC(=O)[C@@H]2CCCCN2C(=O)[C@@H]2CCCN2C1=O`: “viral RNA level” 0.138 and 0.106 (SB2; concentration not given, 3 h, unit not given; baseline: DMSO).
`CCn1ccc(-c2cc(-c3cnn(C)c3)cc([C@@H](C)NC(=O)c3cc(OCCN(C)C)ccc3C)c2)n1` — result for “EC50 fold change”: 6 to 13 fold (viral replication; recombinant E167G mutant; baseline: wild type).
`CC(C)(C)NC(=O)[C@@H](c1cccnc1)N(C(=O)c1ccco1)c1ccc(C(C)(C)C)cc1` — result for “viral titre log reduction”: 0.00663 log10 (Vero C1008; 1 µM; baseline: positive control).
With `Cc1oc2nc1C(=O)N[C@](C)(C(=O)O)c1nc(c(C)o1)C(=O)N[C@](C)(C(=O)O)c1nc(c(C)o1)C(=O)N[C@]2(C)C(=O)O` the inhibition was 16% (viral adsorption; Vero E6, NRC-03-nhCoV; 5 µM).
With `Cc1ccc(N2CCN(C)CC2)cc1C(=O)NC1(c2ccc3c4c(cccc24)CC3)CC1` the inhibition was 100% (viral replication; Vero C1008, XBB.1; 12.5 µM).
`CCCCCCCCCCCCCCCCOP(=O)(O)Oc1c2c(c(OP(=O)(O)OCCCCCCCCCCCCCCCC)c3c1C1CC3c3cc4c(cc31)C1CC4c3ccccc31)C1CC2c2cc3c(cc21)C1CC3c2ccccc21` has an IC50 of 40.6 µM (spike pseudoparticle entry; Caco-2).
The IC50 of `CC1OC(OC2C(OC(=O)C34CCC(C)(C)CC3C3=CCC5C6(C)CCC(OC7OC(CO)C(O)C(O)C7O)C(C)(C)C6CCC5(C)C3(C)CC4O)OCC(O)C2O)C(O)C(O)C1OC1OCC(O)C(OC2OCC(O)C(OC3OCC(O)C(O)C3O)C2O)C1O` (stereo not drawn) is reported as 0.65 µM (pseudovirus cell entry, luciferase reporter; NCI-H1299 ACE2-expressing; 24 h).
`CC[C@@H](C)[C@@H](NC(=O)[C@@H](CCC(=O)O)NC(=O)[C@@H](CCC(=O)O)NC(=O)[C@@H](CCC(N)=O)NC(=O)C(C)(C)NC(=O)[C@@H](CCCCN)NC(=O)[C@H](NC(=O)[C@@H](Cc1ccccc1)NC(=O)C(C)(C)NC(=O)[C@@H](CC(=O)O)NC(=O)[C@@H](CCCCN)NC(=O)[C@@H](Cc1ccccc1)NC(=O)[C@@H](CC(N)=O)NC(=O)[C@@H](Cc1c[nH]cn1)NC(=O)[C@@H](CCC(=O)O)NC(=O)C(C)(C)NC(=O)[C@@H](CCC(=O)O)NC(=O)[C@@H](CC(=O)O)NC(=O)[C@@H](CC(C)C)NC(=O)[C@@H](Cc1ccccc1)NC(=O)[C@@H](Cc1ccc(O)cc1)NC(=O)[C@@H](CCC(N)=O)NC(=O)[C@H](N)CO)[C@H](C)O)C(=O)NCCOCCOCC(=O)NCCOCCOCC(=O)NCCOCCOCC(=O)N[C@@H](CS)C(N)=O` — result for pseudovirus entry: “decreased” (luciferase reporter; ancestral Wuhan spike, VSV pseudovirus; concentration not given).
`CC(C)CC(C(=O)N1CC2(CC1C#N)C(=O)Nc1ccccc12)N(C)C(=O)c1cc2c(F)cc(F)c(F)c2[nH]1` (stereo not drawn) has an inhibition of 96.3% and 94.6% and 96.4% and 86.2% and 95.8% and 95.1% (viral replication; Vero E6; 3 µM).
`C#CCC(C)OP(=O)(O)Oc1c2c(c(OP(=O)(O)OC(C)CC#C)c3c1C1CC3c3cc4c(cc31)C1CC4c3ccccc31)C1CC2c2cc3c(cc21)C1CC3c2ccccc21` (stereo not drawn) has an IC50 of 15.2 µM (spike pseudoparticle entry; Caco-2).
The selectivity index of `O=C(CCCCCCCCCCc1ccc(O)c(O)c1)c1c(O)cccc1O` is reported as 2.3 (Vero E6/TMPRSS2, WK-521 ancestral; baseline: CC50 over EC50).
Under “spike protein formation”, `CCC1OC(C2(C)CC(C)C(O)(C3(C)CCC(C(O)C4(O)OC(CC5(O)OC(C(C)C(O)CC6CCC(C)C(C(C)C(=O)O)O6)CCC5C)C(C)CC4C)O3)O2)CCC1(C)O` (stereo not drawn) is recorded as “inhibited” (Western blot; Vero E6-hTMPRSS2; concentration not given).
The inhibition of `Cc1ccc(N2CC(N3CCC(C)(O)CC3)C2)cc1C(=O)NC1(c2ccc3c4c(cccc24)C(=O)N3C)CC1` is reported as 100% (viral replication; Vero C1008, XBB.1; 12.5 µM).
`C[C@@H]1O[C@@H](n2c3ccccc3c3c4c(c5c6ccccc6[nH]c5c32)CNC4=O)C[C@@H](N)[C@H]1O` gave an EC50 of 1600 nM (viral replication, measured: dsRNA; Calu-3, Omicron BA.1).

Repeated from above:
Under “spike protein formation”, `CCC1OC(C2(C)CC(C)C(O)(C3(C)CCC(C(O)C4(O)OC(CC5(O)OC(C(C)C(O)CC6CCC(C)C(C(C)C(=O)O)O6)CCC5C)C(C)CC4C)O3)O2)CCC1(C)O` (stereo not drawn) is recorded as “inhibited” (Western blot; Vero E6-hTMPRSS2; concentration not given).
